Results from different studies.
Lines come from different studies, so protocols differ. ± gives the spread as reported.
STING1 H232R: Stimulator of interferon genes protein (STING1, Homo sapiens, UniProt Q86WV6, H232R)
Cnr2: Cannabinoid receptor 2 (Cnr2, Mus musculus, UniProt P47936)

O=C(NCCCC[C@H](NC(=O)c1cccc2ccccc12)c1nc2ccccc2[nH]1)c1ccc([N+](=O)[O-])o1  EC50 (STING1 H232R; reporter gene, inhibitor; THP1-Dual KI-hSTING-R232; 24 h, 1 h preincubation, added: diABZI 500 nM): 25800 nM
CC1=NC(C)C(C)S1 (stereo not shown)  EC50 (OR5K1 (Homo sapiens, UniProt Q8NHB7); cAMP, agonist): 102000 nM
O=C(N[C@@H](CCCCNC(=O)c1ccc([N+](=O)[O-])o1)c1nc2ccccc2[nH]1)c1ccc(-c2ccccc2)nn1  EC50 (STING1 H232R; reporter gene, inhibitor; THP1-Dual KI-hSTING-R232; 24 h, 1 h preincubation, added: diABZI 500 nM): 4300 nM
COc1ccc(C(=O)c2c(C(=O)NCCCN(C)C)oc3ccc(Cl)cc3c2=O)cc1OC  EC50 (Growth hormone secretagogue receptor type 1 (GHSR, Homo sapiens, UniProt Q92847); calcium mobilization; HEK293T, transiently transfected): 63.1 nM
O=C(N[C@@H](CCCCNC(=O)c1ccc([N+](=O)[O-])o1)c1nc2ccccc2[nH]1)c1cnn(-c2ccccc2)c1  EC50 (STING1 H232R; reporter gene, inhibitor; THP1-Dual KI-hSTING-R232; 24 h, 1 h preincubation, added: diABZI 500 nM): 17300 nM
CCCCCCCC/C=C\CCCCCCCC(=O)OCC(O)COP(=O)(O)O (stereo not shown)  EC50 (Lysophosphatidic acid receptor 1 (LPAR1, Homo sapiens, UniProt Q92633, W210A); Gi activation, agonist, NanoBiT G-protein dissociation; HEK293T; W210A mutant): 61.7 nM
CCOC(=O)[C@](CC)(CCCSCCOCCOCCN)NC(=O)c1ccc(C2CC2)c(Cc2ccc(F)cc2)n1  EC50 (Cnr2; cAMP, agonist): 3.2 nM
CC[C@H](C)[C@H](NC(=O)[C@H](Cc1ccccc1)NC(=O)[C@H](CCC(=O)O)NC(=O)[C@H](CCCCN)NC(=O)[C@H](C)NC(=O)[C@H](C)NC(=O)[C@H](CCC(N)=O)NC(=O)[C@H](CCC(=O)O)NC(=O)[C@H](CC(=O)O)NC(=O)[C@H](CC(C)C)NC(=O)[C@H](Cc1ccc(O)cc1)NC(=O)[C@H](CCCCN)NC(=O)[C@H](CO)NC(=O)[C@H](Cc1ccc(O)cc1)NC(=O)[C@H](CC(=O)O)NC(=O)[C@H](CO)NC(=O)[C@@H](NC(=O)[C@H](Cc1ccccc1)NC(=O)[C@@H](NC(=O)CNC(=O)[C@H](CCC(N)=O)NC(=O)[C@H](CO)NC(=O)[C@@H](N)Cc1cnc[nH]1)[C@@H](C)O)[C@@H](C)O)C(=O)N[C@@H](C)C(=O)N[C@@H](Cc1c[nH]c2ccccc12)C(=O)N[C@@H](CC(C)C)C(=O)N[C@@H](CCSC)C(=O)N[C@@H](CC(N)=O)C(=O)N[C@H](C(N)=O)[C@@H](C)O  EC50 (Glucagon receptor (GCGR, Homo sapiens, UniProt P47871); cAMP, agonist, TR-FRET): 0.0724 nM
NC(=O)C[C@H](N)C(=O)N[C@@H](Cc1c[nH]c2ccccc12)C(=O)N[C@@H](Cc1ccccc1)C(N)=O  EC50 (uncharacterized protein (Aplysia californica, UniProt A0ABM0K1K5); IP1 accumulation, agonist; CHO-K1 cells, transfected; inactive, value is lower bound): > 501000 nM
O=C(NC[C@@H](Cc1ccc(F)cc1)N1CCC(O)(C(F)(F)F)CC1)C1(c2ccc(Cl)cc2)CCCC1  EC50 (Transient receptor potential cation channel subfamily A member 1 (TRPA1, Homo sapiens, UniProt O75762, I950V)): 14 nM
O=S(=O)(c1ccc2c(c1)OCO2)n1cc(CCCCN2CCC(=C(c3ccc(F)c(F)c3)c3ccc(F)c(F)c3)CC2)nn1  EC50 (ATP-dependent 6-phosphofructokinase, liver type (PFKL, Homo sapiens, UniProt P17858); enzyme activity, activator, ADP-Glo; 4): 342 nM
O=C(NCC[C@H](NC(=O)c1ncc(-c2ccccc2)s1)c1nc2ccccc2[nH]1)c1ccc([N+](=O)[O-])o1  EC50 (STING1 H232R; reporter gene, inhibitor; THP1-Dual KI-hSTING-R232; 24 h, 1 h preincubation, added: diABZI 500 nM): 5500 nM
O=C(Cc1ccc(OCc2ccccc2)cc1)NC1(C(=O)O)CCN(C(=O)c2ccc(-c3cccc(Cl)c3)cc2)CC1  EC50 (Sphingosine 1-phosphate receptor 1 (S1PR1, Homo sapiens, UniProt P21453); cAMP, agonist, luciferase): > 10000 nM
CCOC(=O)C(CC)(CCCSCCCCCCNc1ccc([N+](=O)[O-])c2nonc12)NC(=O)c1ccc(C2CC2)c(Cc2ccc(F)cc2)n1 (stereo not shown)  EC50 (Cnr2; cAMP, agonist): 142 nM
O=C(Nn1c(-c2cccc(Cl)c2)nc2ccccc2c1=O)c1ccccc1F  EC50 (TRPM channel TRPM_PZQ (Fasciola hepatica, UniProt A0A4E0RBW4); whole-cell inward current, activator, automated patch clamp; HEK293): 3080 ± 580 nM
COc1cc(C2C(NC(=O)c3ccc(NC(=O)OC(C)(C)C)cc3)(C(=O)O)C(c3ccc(OC(=O)c4cccs4)c(OC)c3)C2(NC(=O)c2ccc(NC(=O)OC(C)(C)C)cc2)C(=O)O)ccc1OC(=O)c1cccs1 (stereo not shown)  EC50 (Glucagon-like peptide 1 receptor (GLP1R, Homo sapiens, UniProt P43220, E34A); cAMP, agonist): 5.01 nM
O=C(N[C@@H](CCCCNC(=O)c1ccc([N+](=O)[O-])o1)c1nc2ccccc2[nH]1)c1ccc2ccccc2c1  EC50 (STING1 H232R; reporter gene, inhibitor; THP1-Dual KI-hSTING-R232; 24 h, 1 h preincubation, added: diABZI 500 nM): 11100 nM
CCOC(=O)[C@@](CC)(CCCSCCOCCOCCNC(=O)OC(C)(C)C)NC(=O)c1ccc(C2CC2)c(Cc2ccc(F)cc2)n1  EC50 (Cnr2; cAMP, agonist): 128 nM
CC[C@H](C)[C@@H](C(=O)N[C@@H](CC(C)C)C(=O)N[C@@H](CO)C(=O)N[C@@H](CO)C(=O)N[C@H](C(=O)N[C@@H](CCC(=O)O)C(=O)N[C@H](C(=O)NCC(=O)N[C@@H](CO)C(=O)N[C@@H](CC(N)=O)C(=O)N[C@H](C(=O)N1C[C@H](O)C[C@H]1C(N)=O)[C@@H](C)O)C(C)C)[C@@H](C)O)N(C)C(=O)[C@H](C)NC(=O)CN(C)C(=O)[C@H](Cc1ccccc1)NC(=O)[C@H](CO)NC(=O)[C@H](CO)NC(=O)[C@H](CCCNC(=N)N)NC(=O)[C@H](CCC(N)=O)NC(=O)[C@H](CC(C)C)NC(=O)[C@H](Cc1ccccc1)NC(=O)[C@H](Cc1c[nH]cn1)NC(=O)[C@H](C)NC(=O)[C@H](CC(C)C)NC(=O)[C@H](CCCNC(=N)N)NC(=O)[C@H](CCC(=O)O)NC(=O)[C@@H](NC(=O)[C@H](C)NC(=O)[C@@H]1CC(=O)NC[C@H](NC(=O)[C@H](CCCNC(=N)N)NC(=O)CC[C@H](NC(=O)CCCCCCCCCCCCCCCCCCC(=O)O)C(=O)O)C(=O)NCC(=O)N[C@@H]([C@@H](C)O)C(=O)N[C@@H](C)C(=O)N[C@@H]([C@@H](C)O)C(=O)N1)[C@@H](C)O  EC50 (Amylin receptor AMY3; CALCR/RAMP3 (Homo sapiens, UniProt O60896+P30988); cAMP accumulation, agonist; COS-7 expressing AMY3 receptor): > 10000 nM
Cn1cncc1-c1ccc(C(=O)N[C@@H](CCCCNC(=O)c2ccc([N+](=O)[O-])o2)c2nc3ccccc3[nH]2)cc1  EC50 (STING1 H232R; reporter gene, inhibitor; THP1-Dual KI-hSTING-R232; 24 h, 1 h preincubation, added: diABZI 500 nM): 17600 nM
CCOC(=O)[C@](CC)(CCCSCCOCCOCCNC(=O)c1ccc(C(=O)[O-])c(C2=C3C=CC(=[N+](C)C)C=C3[Si](C)(C)c3cc(N(C)C)ccc32)c1)NC(=O)c1ccc(C2CC2)c(Cc2ccc(F)cc2)n1  EC50 (Cnr2; cAMP, agonist): 66 nM
CCCCCCCC/C=C\CCCCCCCC(=O)NCCO  EC50 (Transient receptor potential cation channel subfamily V member 1 (Trpv1, Mus musculus, UniProt Q704Y3, S513A); ion current, agonist, whole-cell patch clamp; 24 °C, +80 mV): 390 ± 320 nM

Some of these lines once more:
O=C(N[C@@H](CCCCNC(=O)c1ccc([N+](=O)[O-])o1)c1nc2ccccc2[nH]1)c1ccc(-c2ccccc2)nn1  EC50 (STING1 H232R; reporter gene, inhibitor; THP1-Dual KI-hSTING-R232; 24 h, 1 h preincubation, added: diABZI 500 nM): 4300 nM
COc1ccc(C(=O)c2c(C(=O)NCCCN(C)C)oc3ccc(Cl)cc3c2=O)cc1OC  EC50 (Growth hormone secretagogue receptor type 1 (GHSR, Homo sapiens, UniProt Q92847); calcium mobilization; HEK293T, transiently transfected): 63.1 nM
O=C(N[C@@H](CCCCNC(=O)c1ccc([N+](=O)[O-])o1)c1nc2ccccc2[nH]1)c1cnn(-c2ccccc2)c1  EC50 (STING1 H232R; reporter gene, inhibitor; THP1-Dual KI-hSTING-R232; 24 h, 1 h preincubation, added: diABZI 500 nM): 17300 nM
CCCCCCCC/C=C\CCCCCCCC(=O)OCC(O)COP(=O)(O)O (stereo not shown)  EC50 (Lysophosphatidic acid receptor 1 (LPAR1, Homo sapiens, UniProt Q92633, W210A); Gi activation, agonist, NanoBiT G-protein dissociation; HEK293T; W210A mutant): 61.7 nM
